Published values pooled from the literature.
Parts stem from different laboratories: compare values within a part only. Changes are numbered by the printed parent chain.
Chain of UniProt Q5S007 (whole entry, looked up): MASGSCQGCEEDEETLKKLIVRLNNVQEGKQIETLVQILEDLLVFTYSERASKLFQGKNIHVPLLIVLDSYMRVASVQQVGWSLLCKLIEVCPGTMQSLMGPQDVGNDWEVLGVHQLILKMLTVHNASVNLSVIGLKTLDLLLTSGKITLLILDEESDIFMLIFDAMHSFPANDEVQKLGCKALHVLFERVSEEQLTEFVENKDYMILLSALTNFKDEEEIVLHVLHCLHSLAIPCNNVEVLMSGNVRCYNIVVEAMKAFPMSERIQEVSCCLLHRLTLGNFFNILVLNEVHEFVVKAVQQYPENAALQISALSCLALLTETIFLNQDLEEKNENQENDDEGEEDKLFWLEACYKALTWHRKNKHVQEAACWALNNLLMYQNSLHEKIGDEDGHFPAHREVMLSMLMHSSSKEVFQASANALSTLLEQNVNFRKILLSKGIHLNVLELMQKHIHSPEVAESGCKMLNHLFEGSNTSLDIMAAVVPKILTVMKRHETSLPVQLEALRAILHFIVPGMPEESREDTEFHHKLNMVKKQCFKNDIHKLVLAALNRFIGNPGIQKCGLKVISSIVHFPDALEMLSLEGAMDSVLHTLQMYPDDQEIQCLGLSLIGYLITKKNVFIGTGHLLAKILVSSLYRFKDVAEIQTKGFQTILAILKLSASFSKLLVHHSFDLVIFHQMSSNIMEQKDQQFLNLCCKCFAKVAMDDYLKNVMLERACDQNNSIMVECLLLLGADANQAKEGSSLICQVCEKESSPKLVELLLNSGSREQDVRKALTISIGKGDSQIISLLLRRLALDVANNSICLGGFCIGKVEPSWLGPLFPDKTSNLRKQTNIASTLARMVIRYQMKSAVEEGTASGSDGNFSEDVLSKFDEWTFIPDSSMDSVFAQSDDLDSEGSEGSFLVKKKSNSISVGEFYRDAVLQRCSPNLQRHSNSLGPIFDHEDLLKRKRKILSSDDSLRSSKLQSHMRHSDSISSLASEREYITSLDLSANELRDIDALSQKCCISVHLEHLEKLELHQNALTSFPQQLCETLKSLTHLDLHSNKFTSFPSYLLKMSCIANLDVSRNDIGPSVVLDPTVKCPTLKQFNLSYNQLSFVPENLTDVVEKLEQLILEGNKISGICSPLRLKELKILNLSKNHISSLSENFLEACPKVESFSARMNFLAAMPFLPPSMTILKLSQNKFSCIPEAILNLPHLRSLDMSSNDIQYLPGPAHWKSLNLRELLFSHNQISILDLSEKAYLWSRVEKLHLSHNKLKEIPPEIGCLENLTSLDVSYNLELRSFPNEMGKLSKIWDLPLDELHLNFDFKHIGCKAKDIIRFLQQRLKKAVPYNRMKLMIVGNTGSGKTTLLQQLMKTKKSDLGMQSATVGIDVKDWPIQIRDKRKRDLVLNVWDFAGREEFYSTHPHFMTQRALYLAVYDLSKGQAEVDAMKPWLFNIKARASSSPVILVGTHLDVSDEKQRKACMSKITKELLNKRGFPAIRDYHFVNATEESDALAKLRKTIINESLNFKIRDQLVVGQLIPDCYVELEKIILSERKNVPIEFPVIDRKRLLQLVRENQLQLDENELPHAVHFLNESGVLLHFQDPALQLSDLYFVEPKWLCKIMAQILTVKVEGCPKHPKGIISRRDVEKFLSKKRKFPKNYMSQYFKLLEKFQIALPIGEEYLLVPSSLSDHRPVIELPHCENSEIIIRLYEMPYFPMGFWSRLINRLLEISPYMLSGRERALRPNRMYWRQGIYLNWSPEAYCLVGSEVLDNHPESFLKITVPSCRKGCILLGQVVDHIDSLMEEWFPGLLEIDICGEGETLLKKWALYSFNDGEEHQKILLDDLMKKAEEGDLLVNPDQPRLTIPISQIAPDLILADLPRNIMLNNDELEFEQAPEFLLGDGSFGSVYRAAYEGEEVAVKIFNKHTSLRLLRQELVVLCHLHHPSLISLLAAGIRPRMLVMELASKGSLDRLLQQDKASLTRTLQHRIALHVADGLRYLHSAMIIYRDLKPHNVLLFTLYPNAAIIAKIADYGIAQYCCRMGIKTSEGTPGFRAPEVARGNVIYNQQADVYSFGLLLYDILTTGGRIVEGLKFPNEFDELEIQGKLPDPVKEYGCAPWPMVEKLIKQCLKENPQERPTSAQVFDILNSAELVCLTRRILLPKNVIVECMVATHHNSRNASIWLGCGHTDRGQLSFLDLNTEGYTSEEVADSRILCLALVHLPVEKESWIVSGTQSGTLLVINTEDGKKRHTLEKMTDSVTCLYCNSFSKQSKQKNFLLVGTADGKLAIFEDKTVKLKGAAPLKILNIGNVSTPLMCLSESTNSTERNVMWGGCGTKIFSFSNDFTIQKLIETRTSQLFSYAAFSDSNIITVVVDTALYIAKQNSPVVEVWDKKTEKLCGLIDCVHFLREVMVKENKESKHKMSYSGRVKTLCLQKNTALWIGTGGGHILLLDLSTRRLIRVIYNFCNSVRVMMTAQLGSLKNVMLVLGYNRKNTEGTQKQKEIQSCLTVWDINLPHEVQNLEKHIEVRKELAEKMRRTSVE

Sample 1 — method: DHFR PCA, deep sequencing; matrix: yeast; together with: (+)-ABA 200 µM; baseline: wild-type fitted maximum; reading: higher = stronger binding
Target: ABI1, truncated, D143A, DHFR fusion (Arabidopsis thaliana)
Notes: methotrexate growth selection, single substitutions
Starting sequence: PYL1, truncated, DHFR fusion (Arabidopsis thaliana); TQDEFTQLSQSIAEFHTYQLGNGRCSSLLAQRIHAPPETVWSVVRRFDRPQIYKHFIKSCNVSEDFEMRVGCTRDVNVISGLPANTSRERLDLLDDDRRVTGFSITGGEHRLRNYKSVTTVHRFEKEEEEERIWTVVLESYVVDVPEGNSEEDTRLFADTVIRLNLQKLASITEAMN
Variant	relative binding score [%]
R99K	111
R74F	0.616
Q167F	78.3
T1I	101
N85W	102
E128Q	105
Q2F	101
T119C	96.8

Sample 2 — Substance: NCL (Homo sapiens, UniProt P19338); method: cross-linking MS; matrix: cell fractions
partner	conditions	cross-linked residues
PDCD11 (Homo sapiens, UniProt Q14690)	together with: DMTMM	E590 to K1524
SYT1 (Homo sapiens, UniProt P21579)	together with: DSSO	K477 to K108
C16orf87 (Homo sapiens, UniProt Q6PH81)	together with: DSSO	K87 to K79

Sample 3 — method: DNA-protein interaction ELISA; molecule type: double-stranded DNA, one strand shown; matrix: in vitro, bacterial lysate; concentration: not given; notes: whole dsDNA probe, crude lysate protein; baseline: highest signal in screen; reading: higher = stronger binding
Target: Probable WRKY transcription factor 33, N-terminal DNA-binding domain (WRKY33, Arabidopsis thaliana, UniProt Q8S8P5, residues 169-264)
Construct (chain): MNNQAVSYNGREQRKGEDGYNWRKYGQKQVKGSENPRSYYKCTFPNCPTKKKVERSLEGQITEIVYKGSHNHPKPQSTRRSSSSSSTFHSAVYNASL
Sequence	relative absorbance
AAAAAAATATTTGAGCTAGGTTATCAAAAA	13.5 % of maximum
AAAAAAGGGTATACTCGCAGCCCCTAAAAA	19.5 % of maximum
AAAAAATATGCTACTCCACCTTGATGAAAA	22 % of maximum
AAAAAAACCCTGTGTCGGCCGATAAAAAA	20.8 % of maximum
AAAAAAGCGTAAGCCTTGACAGTCGTAAAA	23.7 % of maximum
AAAAAAATGTTCAAGCTCGATCTACAAAAA	15.7 % of maximum
AAAAAAGTGCACGACCCATTTATATAAAAA	26.5 % of maximum
AAAAAAACCTCTTTATTCTCGATTGTAAAA	22.6 % of maximum

Other studies, line by line
Structure (SMILES)	target	assay	conditions	scale	quantity	result
CN1CCN(c2ccc3nc(-c4c(N)c5c(F)cccc5[nH]c4=O)[nH]c3c2)CC1	Leucine-rich repeat serine/threonine-protein kinase 2 (LRRK2, Homo sapiens, UniProt Q5S007)	enzyme activity, inhibitor	0.5 µM	baseline: control	remaining activity	24.5%

For quick reference, copied from above (sample 3):
Sequence	relative absorbance
AAAAAAACCCTGTGTCGGCCGATAAAAAA	20.8 % of maximum
AAAAAAGCGTAAGCCTTGACAGTCGTAAAA	23.7 % of maximum
AAAAAAATGTTCAAGCTCGATCTACAAAAA	15.7 % of maximum
